{"data": "Measured values pooled from the literature", "note": "Compare with care: the assays were run in different laboratories."}
{"SMILES": "Cc1ccc(C(=O)C2=C(O)C(=O)N(CC(C)O)C2c2ccc(C(C)C)cc2)cn1 (stereo not drawn)", "system": "aqueous buffer", "setting": "27 h, pH 7.4", "solubility": "4900 µM"}
{"SMILES": "Cc1c(-c2ccc(N3CCc4cccc(C(=O)Nc5nc6ccccc6s5)c4C3)nc2C(=O)O)cnn1CC12CC3(C)CC(C)(C1)CC(OCCN(CC(O)CO)C(=O)OCc1ccc(NC(=O)[C@@H](CCCNC(N)=O)NC(=O)[C@H](NC(=O)CCCCCN4C(=O)C=CC4=O)C(C)C)cc1)(C3)C2 (stereo partly drawn)", "system": "aqueous buffer", "setting": "pH 7.4", "solubility": "< 0.0011 mg/mL"}
{"SMILES": "C[n+]1cc(NC(=O)c2ccc3ccc4ccc(C(=O)Nc5cc6ccccc6[n+](C)c5)nc4c3n2)cc2ccccc21", "system": "aqueous buffer", "setting": "pH 7.4", "solubility": "107 µM"}
{"SMILES": "CC(=O)N[C@@H](CCC(N)=O)C(=O)N[C@@H](CCC(N)=O)C(=O)N[C@@H](CCCCN)C(=O)N[C@@H](Cc1ccccc1)C(=O)N[C@@H](CCC(N)=O)C(=O)OC(C)C(=O)N[C@@H](CCC(N)=O)C(=O)N[C@@H](Cc1ccccc1)C(=O)N[C@@H](CCC(=O)O)C(=O)N[C@@H](CCC(N)=O)C(=O)N[C@@H](CCC(N)=O)C(N)=O (stereo partly drawn)", "system": "water", "solubility": "≥ 15000 µM"}
{"SMILES": "CC12N3Cc4c(c(OCCCS(=O)(=O)[O-])c5ccccc5c4OCCCS(=O)(=O)[O-])CN1C(=O)N1Cc4c(c(OCCCS(=O)(=O)[O-])c5ccccc5c4OCCCS(=O)(=O)[O-])CN(C3=O)C12C.[Na+].[Na+].[Na+].[Na+] (stereo not drawn)", "assay": "NMR", "system": "aqueous buffer", "solubility": "38000 µM"}
{"SMILES": "C[N+](C)(C)C[C@@H](O)CC(=O)O.O=C([O-])[C@@H](O)Cc1ccccc1", "system": "water", "solubility": "1530 mg/mL"}
{"SMILES": "CNC(=S)Nc1cccc([N+](=O)[O-])c1", "system": "water", "solubility": "380 µM"}
{"SMILES": "N#CC(C#N)=NNc1ccc(-c2ccc(F)cc2F)cc1", "assay": "NMR", "system": "aqueous buffer", "solubility": "< 500 µM"}
{"SMILES": "O=C1CCCCC(=O)Nc2ccc3oc(cc3c2)C(=O)NCc2cccc(c2)CNC(=O)c2cc3cc(ccc3o2)N1", "system": "aqueous buffer", "setting": "pH 7.4", "solubility": "< 2 µM"}
{"SMILES": "O=c1c2ccccc2[se]n1CCCCCCn1[se]c2ccccc2c1=O", "assay": "HPLC", "system": "water", "setting": "24 h, 25 °C", "solubility": "0.001 to 0.002 mg/mL"}
{"SMILES": "CCC1Sc2ccc(S(=O)(=O)CCC(=O)Nc3cccc4ccccc34)cc2NC1=O (stereo not drawn)", "system": "aqueous buffer", "solubility": "30 µM"}
{"SMILES": "Cc1c(-c2ccc(Cc3ccc(OC(F)(F)F)cc3)cc2)[nH]c2cccc(F)c2c1=O", "system": "simulated gastric fluid", "setting": "24 h, pH 2, acidic", "solubility": "0.68 µM"}
{"SMILES": "COc1cc2c(=O)c(C(=O)NCCNCCO)cn(Cc3ccccc3)c2cc1OCc1ccc(C(C)(C)C)cc1", "assay": "shake flask", "system": "PBS", "setting": "24 h, pH 6.5, 25 °C", "solubility": "10 µM"}
{"SMILES": "CCn1cc(-c2ccnc(Nc3ccc(N4CCNCC4)cc3)n2)c(-c2cccnc2)n1", "system": "aqueous buffer", "setting": "pH 7.4", "solubility": "0.0938 mg/mL"}
{"SMILES": "COc1ccc(-c2oc3ccc(-c4cc(OC)c(OC)c(OC)c4)cc3c2C#CC2(O)CCCCC2)cc1", "system": "aqueous buffer", "solubility": "< 0.001 mg/mL"}
{"SMILES": "O=C(O)COc1cc2c(OCC(=O)O)cc1Cc1cc(OCC(=O)O)c(cc1OCC(=O)O)Cc1cc(OCC(=O)O)c(cc1OCC(=O)O)Cc1cc(OCC(=O)O)c(cc1OCC(=O)O)Cc1cc(OCC(=O)O)c(cc1OCC(=O)O)Cc1cc(OCC(=O)O)c(cc1OCC(=O)O)C2", "assay": "NMR", "system": "aqueous buffer", "setting": "12 h, pH 7.4", "solubility": "33000 µM"}
{"SMILES": "CCCn1c(=O)c2[nH]c(-c3ccc(N(C)C(=O)c4ccc(C(F)(F)F)nc4)nc3)nc2n(CCC)c1=O", "system": "water", "solubility": "0.003 mg/mL"}
{"SMILES": "CC(=O)c1c(O)c(C)c(O)c2c1OC1=CC(=O)/C3=C(/C)N[C@H](C(=O)O)CC1=CC=CC=C[C@]2(C)C3=O", "assay": "HPLC", "system": "water", "setting": "24 h, 25 °C", "solubility": "4360 µM"}
